Experimental data pooled from the literature.
Protocols differ between the studies behind these lines.
Effect on: metabolic stability

CN(C)C(=O)c1ccnc(N2Cc3cn(Cc4ccc(F)cc4F)nc3C2)n1  half-life (rat, liver microsomes): 451 min
CCC(CC)[C@H](NC(C)=O)[C@@H]1[C@H](O)[C@@H](C(=O)N[C@H](C(=O)O)[C@@H](C)CC)C[C@H]1NC(=N)N  half-life (Sprague-Dawley rat, intestine; 100 µg/mL, pH 7.4): 1700 min
Nc1nc(Cl)nc2c1ncn2Cc1cc(OCC(F)F)cc(OC(F)F)c1  half-life (rat, liver microsomes): 169 min
Cc1cccc(Cn2c(OC3CCN(C(=O)C4CC4)CC3)nc3c2c(=O)n(C)c(=O)n3C)c1F  half-life (rat, liver microsomes): 4 min
COc1ccc(S(=O)(=O)N(C)/N=C/c2ccc(C#N)cc2)cc1OC  half-life (male Wistar rat, liver microsomes; 10 µM, pH 7.4): 126 min
CCOC(=O)N1CCC(Oc2nc3c(c(=O)n(C)c(=O)n3C)n2Cc2cccc(C)c2)CC1  half-life (rat, liver microsomes): 2 min
CC1(CCCCCCCCCCCCOCCCOP(=O)(O)CO[C@H](CO)Cn2ccc(N)nc2=O)COC1  half-life (rat, hepatocytes; 1 µM): 22.9 min
Cn1c(=O)c2c(nc(OC3CCN(C(=O)C4CC4)CC3)n2Cc2ccccc2F)n(C)c1=O  half-life (rat, liver microsomes): 24 min
CCNC(=O)[C@H](CC(C)C)NC(=O)[C@H](Cc1c[nH]cn1)NC(=O)CNC(=O)[C@@H](NC(=O)[C@H](C)NC(=O)[C@H](Cc1c[nH]c2ccccc12)NC(=O)[C@H](CCC(N)=O)NC(=O)[C@H](N)Cc1ccccc1)C(C)C  half-life (rat, hepatocytes): 32 min
Brc1ccc(Nc2nc(NN=Cc3c[nH]c4ccccc34)nc(N3CCOCC3)n2)cc1  half-life (rat, liver microsomes; 0.1 µM, pH 7.4): 63.3 min
O=c1c(-c2cnn(-c3ccc(Cl)cc3)c2)c(C(F)(F)F)oc2c(O)c(O)ccc12  half-life (rat, liver microsomes): > 300 min
O=C1C2=C(CCN(Cc3ccccc3)C2)N2CCN=C2N1Cc1ccc(C(F)(F)F)cc1  half-life (rat, liver microsomes): 7.12 min
CC1(CCCCCCCCCCOCCCOP(=O)(O)CO[C@H](CO)Cn2ccc(N)nc2=O)COC1  half-life (rat, hepatocytes; 1 µM): 73.8 min
Cc1cc2c(cc1O)C=C1C=CC(=O)C(C)(C)[C@H]1CC2  half-life (rat, liver microsomes; 1 mM, pH 7.4): 2.38 min
CC(C)CCn1c(OC2CN(C(=O)C3CC3)C2)nc2c1c(=O)n(C)c(=O)n2C  half-life (rat, liver microsomes): > 30 min
CN(C)C(=O)c1ccnc(N2Cc3cn(Cc4ccc(F)cc4)nc3C2)n1  half-life (rat, liver microsomes): 158 min
CC(C)CCn1c(OC2CCN(C(=O)C3CC3)CC2)nc2c1c(=O)n(C)c(=O)n2C  half-life (rat, liver microsomes): 17 min
CC1(CCCCCCCCCCCCS(=O)(=O)CCCOP(=O)(O)CO[C@H](CO)Cn2ccc(N)nc2=O)COC1  half-life (rat, hepatocytes; 1 µM): 41.6 min
CC(C)CCCn1c(CN2CCN(C(=O)C3CC3)CC2)nc2c1c(=O)n(C)c(=O)n2C  half-life (rat, liver microsomes): 5 min
Cc1ccc(N2C(=O)c3ccccc3NC23C(=O)N(C)c2ccc(Br)cc23)cc1 (centres unmarked)  half-life (rat, hepatocytes): 5.2 min

For quick reference, copied from above:
CN(C)C(=O)c1ccnc(N2Cc3cn(Cc4ccc(F)cc4F)nc3C2)n1  half-life (rat, liver microsomes): 451 min
CC(C)CCn1c(OC2CN(C(=O)C3CC3)C2)nc2c1c(=O)n(C)c(=O)n2C  half-life (rat, liver microsomes): > 30 min
